Results pooled from the literature.
“And” joins repeats or separate records; there may be more than shown. ± marks the error that the study gave.
Target: Glutamate carboxypeptidase 2 (FOLH1, Homo sapiens, UniProt Q04609)
Chain of UniProt Q04609 (whole entry, looked up): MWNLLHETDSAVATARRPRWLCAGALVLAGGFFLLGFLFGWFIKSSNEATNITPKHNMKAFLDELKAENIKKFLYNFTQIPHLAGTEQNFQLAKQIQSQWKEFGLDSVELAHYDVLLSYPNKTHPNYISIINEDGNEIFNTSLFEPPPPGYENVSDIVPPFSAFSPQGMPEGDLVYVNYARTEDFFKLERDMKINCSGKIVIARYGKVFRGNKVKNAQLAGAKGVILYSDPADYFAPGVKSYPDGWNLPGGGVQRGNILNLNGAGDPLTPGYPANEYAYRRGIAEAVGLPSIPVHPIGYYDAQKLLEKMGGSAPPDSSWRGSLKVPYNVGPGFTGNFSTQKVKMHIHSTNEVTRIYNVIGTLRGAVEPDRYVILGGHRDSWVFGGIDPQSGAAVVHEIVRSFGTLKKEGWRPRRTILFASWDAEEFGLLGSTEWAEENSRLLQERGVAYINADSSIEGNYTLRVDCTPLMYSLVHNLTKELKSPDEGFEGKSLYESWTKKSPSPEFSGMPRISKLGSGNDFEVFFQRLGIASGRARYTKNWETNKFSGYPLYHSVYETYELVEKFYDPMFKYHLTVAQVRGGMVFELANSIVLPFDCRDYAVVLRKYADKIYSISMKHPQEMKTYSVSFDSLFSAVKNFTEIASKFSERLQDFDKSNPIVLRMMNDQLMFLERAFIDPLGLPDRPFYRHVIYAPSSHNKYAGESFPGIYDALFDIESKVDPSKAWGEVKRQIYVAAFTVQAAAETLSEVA

Compound	assay	test system	conditions	measurement	value
CC1=CC(C)=[N+]2C1=C(CCCC(=O)NCC1CCC(C(=O)NC(Cc3ccc4ccccc4c3)C(=O)NCCCCC(NC(=O)NC(CCC(=O)O)C(=O)O)C(=O)O)CC1)c1c(C)cc(C)n1[B-]2(F)F (stereo not shown)	ligand displacement in cells, radioligand			IC50	124 nM
CC1(C)C(=CC=C2CCCC(C=CC3=[N+](CCCCS(=O)(=O)[O-])c4ccc(S(=O)(=O)O)cc4C3(C)C)=C2Oc2ccc(S(=O)(=O)O)cc2)N(CCCCCC(=O)NCCCC[C@H](NC(=O)[C@@H](CCC(=O)O)NC(=O)[C@@H](CCC(=O)O)NC(=O)[C@@H](CCC(=O)O)NC(=O)CCCCCNC(=O)C2CCC(CNC(=O)CC[C@H](NC(=O)N[C@@H](CCC(=O)O)C(=O)O)C(=O)O)CC2)C(N)=O)c2ccc(S(=O)(=O)O)cc21 (stereo partly shown)	radioligand binding, inhibitor	PC3pip	1 h, 37 °C, with: [3H]-methyl ligand 12 nM	IC50	1.53 ± 0.14 nM
O=C(O)CC[C@H](OC(=O)N[C@@H](CCCCNC(=O)c1ccc(I)cc1)C(=O)O)C(=O)O	enzyme activity, inhibitor, fluorescence		lysate	Ki	0.04 nM
O=C(O)CNC(=O)c1cc(CNC(=O)c2ccc(CNC(=O)[C@H]3C[C@H](NC(=O)CCNS(=O)(=O)c4ccc5ccccc5c4)CN3C(=O)c3nn(-c4ccccc4)c(=O)[nH]c3=O)cc2)cc(OCC(=O)NCCOCCOCCNC(=S)Nc2ccc3c(c2)C(=O)OC32c3ccc(O)cc3Oc3cc(O)ccc32)c1	cell-free assay, FP			Kd	58 nM
C[N+]1=C(C=CC=CC=C2N(CCCCCC(=O)NCCCC[C@H](NC(=O)[C@@H](CCC(=O)O)NC(=O)[C@@H](CCC(=O)O)NC(=O)[C@@H](CCC(=O)O)NC(=O)CCCCCNC(=O)C3CCC(CNC(=O)CC[C@H](NC(=O)N[C@@H](CCC(=O)O)C(=O)O)C(=O)O)CC3)C(N)=O)c3ccc4ccccc4c3C2(C)C)C(C)(C)c2c1ccc1ccccc21 (stereo partly shown)	radioligand binding, inhibitor	PC3pip	1 h, 37 °C, with: [3H]-methyl ligand 12 nM	IC50	2.07 ± 0.13 nM
O=C(O)CC[C@H](NC(=O)N[C@@H](CCCCNC(=O)CCCCCCC(=O)NCCCCNC(=O)CN1CCN(CC(=O)O)CCN(CC(=O)O)CCN(CC(=O)O)CC1)C(=O)O)C(=O)O	enzyme activity, inhibitor, fluorescence			IC50	54 nM
CC1=CC(C)=[N+]2C1=C(CCCC(=O)NCCCCCC(=O)NCCCC[C@H](NC(=O)N[C@@H](CCC(=O)O)C(=O)O)C(=O)O)c1c(C)cc(C)n1[B-]2(F)F	ligand displacement in cells, radioligand			Ki	19.6 nM
O=C(O)CC[C@H](NC(=O)O[C@@H](CCCCNC(=O)c1ccc(I)cc1)C(=O)O)C(=O)O	enzyme activity, inhibitor, fluorescence		lysate	Ki	0.9 nM
O=C([O-])CN1CCN(CC(=O)[O-])CCN(CC(=O)NCC2CCC(C(=O)NC(Cc3ccc4ccccc4c3)C(=O)NCCCCC(NC(=O)NC(CCC(=O)O)C(=O)O)C(=O)O)CC2)CCN(CC(=O)[O-])CC1.[Sc+3] (stereo not shown)	ligand displacement, radioligand			Ki	4.7 nM and 4.72 nM
NCC(=O)NC(CC(=O)O)C(=O)NC(CS)C(=O)NC(CCCCNC(=O)CCCCCCC(=O)NCCCCC(NC(=O)NC(CCC(=O)O)C(=O)O)C(=O)O)C(=O)O (stereo not shown)	enzyme activity, inhibitor, fluorescence		lysate	Ki	0.17 nM

Repeated from above:
Compound	assay	test system	conditions	measurement	value
O=C(O)CC[C@H](NC(=O)O[C@@H](CCCCNC(=O)c1ccc(I)cc1)C(=O)O)C(=O)O	enzyme activity, inhibitor, fluorescence		lysate	Ki	0.9 nM
